Measurements collected from several papers.
Lines come from different studies, so protocols differ. ± marks the error that the study gave.
PLK1 polo-box: Serine/threonine-protein kinase PLK1, polo-box (PLK1, Homo sapiens, UniProt P53350)
UniProt P53350, sequence (whole entry, looked up): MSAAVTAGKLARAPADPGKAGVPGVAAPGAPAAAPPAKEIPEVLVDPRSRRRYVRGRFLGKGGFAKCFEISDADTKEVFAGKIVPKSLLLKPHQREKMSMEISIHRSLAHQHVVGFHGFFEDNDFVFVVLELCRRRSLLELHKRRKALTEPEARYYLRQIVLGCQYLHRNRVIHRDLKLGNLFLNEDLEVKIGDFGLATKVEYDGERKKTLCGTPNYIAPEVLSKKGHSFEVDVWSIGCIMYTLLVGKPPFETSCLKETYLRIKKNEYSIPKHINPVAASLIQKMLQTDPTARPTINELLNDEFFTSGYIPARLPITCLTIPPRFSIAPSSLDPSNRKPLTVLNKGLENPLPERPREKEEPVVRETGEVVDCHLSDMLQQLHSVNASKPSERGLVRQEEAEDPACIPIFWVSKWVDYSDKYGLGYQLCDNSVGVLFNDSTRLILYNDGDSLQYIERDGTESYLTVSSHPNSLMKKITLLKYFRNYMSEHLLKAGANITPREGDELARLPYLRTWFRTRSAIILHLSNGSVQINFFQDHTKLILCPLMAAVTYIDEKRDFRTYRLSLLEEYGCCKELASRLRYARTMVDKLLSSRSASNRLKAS
PLK1 polo-box domain: Serine/threonine-protein kinase PLK1, polo-box domain (PLK1, Homo sapiens, UniProt P53350)
PLK1: Serine/threonine-protein kinase PLK1 (PLK1, Homo sapiens, UniProt P53350)

The Kd of CC(=O)N[C@@H](CC(C)C)C(=O)N[C@@H](C)C(=O)N1CCC[C@H]1C(=O)N1CCC[C@H]1C(=O)N[C@@H](CC(C)C)C(=O)N[C@@H](Cc1c[nH]cn1)C(=O)N[C@@H](CO)C(=O)N[C@H](C(=O)N[C@@H](C)C(N)=O)[C@@H](C)OP(=O)(O)O is reported as 40.4 nM (PLK1 polo-box; binding, MST).
For CC(C)C[C@@H]1NC(=O)CCCCCCCCCCCC[n+]2cc(n(CCCCCCCCc3ccccc3)c2)C[C@@H](C(=O)N[C@@H](CO)C(=O)N[C@H](C(N)=O)[C@@H](C)OP(=O)([O-])O)NC1=O, the IC50 was 240 nM (PLK1 polo-box domain).
With CC(=O)NC(Cc1ccc(Br)c(Cl)c1)C(=O)N[C@@H](C)C(=O)N1CCC[C@H]1C(=O)N1CCC[C@H]1C(=O)N[C@@H](CCC(=O)O)C(=O)N[C@@H](Cc1c[nH]cn1)C(=O)N[C@@H](CO)C(=O)N[C@H](C(=O)N[C@@H](C)C(N)=O)[C@@H](C)OP(=O)(O)O (stereo partly shown) the Kd was 3.11 nM (PLK1 polo-box; binding, MST).
For CC(C)C[C@@H]1NC(=O)CCCCCCCC[n+]2cc(n(CCCCCCCCc3ccccc3)c2)C[C@@H](C(=O)N[C@@H](CO)C(=O)N[C@H](C(N)=O)[C@@H](C)OP(=O)([O-])O)NC1=O, the IC50 was 830 nM (PLK1 polo-box domain).
CC[C@@H]1C(=O)N(C)c2cnc(Oc3ccc(C(=O)NCCCC[C@H](NC(=O)COCCOCCNC(=O)COCCOCCNC(=O)COCCOCCNC(=O)COCCOCCNC(=O)[C@@H](NC(=O)[C@H](CO)NC(=O)[C@H](Cc4cncn4CCCCCCCCc4ccccc4)NC(=O)[C@H](CC(C)C)NC(=O)[C@@H]4CCCN4C(C)=O)[C@@H](C)OP(=O)(O)O)C(N)=O)cc3OC)nc2N1CC(C)C has an IC50 of 60 ± 2.9 nM (PLK1; enzyme activity, inhibitor).
For CC(=O)N[C@@H](Cc1ccccc1)C(=O)N[C@@H](C)C(=O)N1CCC[C@H]1C(=O)N1CCC[C@H]1C(=O)N[C@@H](CCC(=O)O)C(=O)N[C@@H](Cc1c[nH]cn1)C(=O)N[C@@H](CO)C(=O)N[C@H](C(=O)N[C@@H](C)C(N)=O)[C@@H](C)OP(=O)(O)O, the Kd was 14.4 nM (PLK1 polo-box; binding, MST).
For CC[C@@H]1C(=O)N(C)c2cnc(Oc3ccc(C(=O)NCCCC[C@H](NC(=O)COCCOCCNC(=O)COCCOCCNC(=O)COCCOCCNC(=O)COCCOCCNC(=O)[C@@H](NC(=O)[C@H](CO)NC(=O)[C@H](Cc4cncn4CCCCCCCCc4ccccc4)NC(=O)[C@H](CC(C)C)NC(=O)[C@@H]4CCCN4C(C)=O)[C@@H](C)OP(=O)(O)O)C(N)=O)cc3OC)nc2N1C1CCCC1, the IC50 was 33 ± 3.5 nM (PLK1; enzyme activity, inhibitor).
With CC(C)C[C@H](NC(=O)CCCCCCCCc1ccccc1)C(=O)N[C@@H](Cc1c[nH]cn1)C(=O)N[C@@H](CO)C(=O)N[C@H](C(N)=O)[C@@H](C)OP(=O)(O)O the IC50 was 19 nM (PLK1 polo-box; ligand displacement, FP).
The Kd of CC[C@@H]1C(=O)N(C)c2cnc(Nc3ccc(C(=O)NCCCC[C@H](NC(=O)[C@@H](NC(=O)[C@H](CO)NC(=O)[C@H](Cc4cncn4CCCCCCCCc4ccccc4)NC(=O)[C@H](CC(C)C)NC(=O)[C@@H]4CCCN4C(C)=O)[C@@H](C)OP(=O)(O)O)C(N)=O)cc3OC)nc2N1C1CCCC1 is reported as 19 nM (PLK1; binding).
The IC50 of CC(=O)N(CCCCCCc1ccccc1)CC(=O)N[C@@H](CC(C)C)C(=O)N[C@@H](Cc1c[nH]cn1)C(=O)N[C@@H](CO)C(=O)N[C@H](C(N)=O)[C@@H](C)OP(=O)(O)O is reported as 15 nM (PLK1 polo-box; ligand displacement, FP).

Some of these lines once more:
With CC(C)C[C@H](NC(=O)CCCCCCCCc1ccccc1)C(=O)N[C@@H](Cc1c[nH]cn1)C(=O)N[C@@H](CO)C(=O)N[C@H](C(N)=O)[C@@H](C)OP(=O)(O)O the IC50 was 19 nM (PLK1 polo-box; ligand displacement, FP).
The Kd of CC(=O)N[C@@H](CC(C)C)C(=O)N[C@@H](C)C(=O)N1CCC[C@H]1C(=O)N1CCC[C@H]1C(=O)N[C@@H](CC(C)C)C(=O)N[C@@H](Cc1c[nH]cn1)C(=O)N[C@@H](CO)C(=O)N[C@H](C(=O)N[C@@H](C)C(N)=O)[C@@H](C)OP(=O)(O)O is reported as 40.4 nM (PLK1 polo-box; binding, MST).
